Measured values from different studies.
Several values in a cell are separate wells, animals, samples, runs or records. ± marks the error that the study gave.

| Structure (SMILES) | target or system | assay | system | setting | scale | measurement | result |
| --- | --- | --- | --- | --- | --- | --- | --- |
| CC12CCCC(NS(=O)(=O)c3ccccn3)(C1)C1CC(C)(C)C1CC2 (centres unmarked) | HT-29 | cell growth or viability, CCK-8 | – | 50 µM | – | inhibition | 77.2% |
| CCN(C(=O)c1cc(F)ccc1Oc1nncnc1N1CCC2(C1)CN([C@H](CCCN(C)CCOC)C(C)C)C2)C(C)C | LoVo | cell growth or viability | – | 7 days | – | GI50 | > 10 µM |
| CCC(=CCc1c(O)cc2c(c1O)C(=O)CC(c1ccccc1O)O2)CC (centres unmarked) | MCF7 | cytotoxicity, MTT | – | 1.696 µM, 48 h | – | growth inhibition | -6.2% |
| CC12CCCC(NS(=O)(=O)c3ccc(O)cc3)(C1)C1CC(C)(C)C1CC2 (centres unmarked) | HT-29 | cell growth or viability, CCK-8 | – | 50 µM | – | inhibition | 99.5% |
| Cc1n[nH]c(C)c1CCCOc1cc(C(=O)NCCCCC(NC(=O)CN2CCN(CC(=O)[O-])CCN(CC(=O)[O-])CCN(CC(=O)[O-])CC2)C(=O)NCC2CCC(C(=O)NC(Cc3ccc4ccccc4c3)C(=O)NCCCCC(NC(=O)NC(CCC(=O)O)C(=O)O)C(=O)O)CC2)ccc1F.[68Ga+3] (centres unmarked) | 22Rv1 | – | – | 2 h | reference: added dose | maximum uptake | 6 ± 0.82% |
| O=c1cc(NCCO)c2ccccc2o1 | COS-7 (untransfected) | – | – | 500 µM, unit not given | reference: 3 µM ionomycin | calcium mobilisation signal | 1.95 ± 1.03 |
| Cc1ccccc1S(=O)(=O)NC12CCCC(C)(CCC3C1CC3(C)C)C2 (centres unmarked) | HT-29 | cell growth or viability, CCK-8 | – | 50 µM | – | inhibition | 87.2% |
| O=S(=O)(N[C@H]1CCO[C@@H](C2c3ccccc3CCc3ccccc32)C1)c1ccc(OC(F)(F)F)cc1 | D425 | CellTiter | – | concentration not given, 72 h | – | cell proliferation | decreased |
| CCc1c(-c2ccc3[nH]ncc3c2)cnc(N)c1-c1ccc(O)cc1 | CHP-212 resistant sublines, USP7 V517F heterozygous | – | – | 50 µM | – | viability | 6.92% |
| CCC(CC)Nc1ncc2c(/C=C/C(=O)N3CCC(OC)CC3)nn(Cc3cccc(C(F)(F)F)c3)c2n1 | OE33 | cell growth or viability, resazurin | – | 5 days | – | EC50 | > 30 µM |
| CCC(=CCc1c(O)cc2c(c1O)C(=O)CC(c1cccc(O)c1OC)O2)CC (centres unmarked) | HeLa | cell growth or viability, MTT | – | 3.125 µM, 48 h | – | inhibition | 3.26% |
| C[C@@H]1CC[C@@H]([C@](O)(CNCc2ccccc2F)COCc2ccccc2)[C@H](OCc2ccccc2)C1 | A2780 | cell growth or viability, MTT | – | 10 µM, 72 h | – | inhibition | 99% |
| CCC(=CCc1c(O)cc2c(c1O)C(=O)CC(c1ccc(O)c(OC)c1)O2)CC (centres unmarked) | HeLa | cell growth or viability, MTT | – | 6.25 µM, 48 h | – | inhibition | 27% |
| Cn1ncc2cc(-c3cncc(Cl)c3N3CCC4(CCNC4=O)CC3)ccc21 | LS174T | gene expression, microarray, item: LDB2 mRNA | – | concentration not given, 4 h | reference: untreated cells | log2 fold change | 2.93 |
| Cc1ncsc1-c1ccc(C(C)NC(=O)C2CC(O)CN2C(=O)C(NC(=O)CCCCCCCCCCN2CCCC(Nc3ncc(Cl)c(Nc4ccccc4S(=O)(=O)C(C)C)n3)C2)C(C)(C)C)cc1 (centres unmarked) | 22Rv1 | RNA-seq, item: TNRC6C mRNA | – | concentration not given | reference: DMSO | log2 fold change | -1.55 |
| COc1ccccc1-c1ccncc1C(=O)Nc1nnc(OCc2ccc(Cl)cc2)s1 | MDA-MB-231 | – | – | 0.375 µM | – | colony count | 37 and 27 and 33 and 23 |
| COc1ccccc1CNC[C@@](O)(COCc1ccccc1)[C@@H]1CC[C@@H](C)C[C@H]1OCc1ccccc1 | A2780 | cell growth or viability, MTT | – | 10 µM, 72 h | – | inhibition | 99% |
| N#C[C@@H]1CCCN1C(=O)CNC(=O)c1ccnc2ccc(OCCCN3CCN(C(=O)CCc4ccc5c(c4)CN4CCN(Cc6cc(CCC(=O)O)ccc6O)CC(=O)[O][Al-]([18F])([O]C(=O)C4)[O]5)CC3)cc12 (some centres unmarked) | HT1080 cells expressing human FAP | – | – | 60 min, 37 °C | – | internalized fraction | 74.8 ± 2.5% |
| O=C(C[Se]C(=O)c1cc2ccccc2[nH]1)Nc1cccc(C(F)(F)F)c1 | NCI60 NSCLC subpanel mean | cell growth | – | – | – | TGI | 2.7 µM |
| O=C(Nc1cccc(Sc2ccc3c(/C=C/c4ccccn4)n[nH]c3c2)c1)c1ccco1 | BaF3 | cell growth or viability, CCK-8 | – | – | – | GI50 | 4.27 µM |
| CNS(=O)(=O)Nc1nccc(Cc2c(C)c3ccc(Oc4ncccc4F)cc3oc2=O)c1F | 639-V | cell viability | – | 7 days | – | IC50 | > 1 µM |
| COC1CCC(Nc2nc(-c3nccn3C)nc3sc(-c4ccn(C)n4)c(-c4ccccc4)c23)C1 (centres unmarked) | BxPC-3 | cAMP-Glo | – | 1.0 µM, 1 h, with: isoprenaline 15 min | – | cAMP level | no effect |
| O=S(=O)(Nc1ccc(OC(F)(F)F)cc1)N1CCCC(C2c3ccc(F)cc3CCc3cc(F)ccc32)C1 (centres unmarked) | D425 | immunoblot, item: Bad | – | concentration not given, 24 h | – | phosphorylation level | decreased |
| CC(=O)N[C@@H](CO)C(=O)N[C@@H](Cc1ccccc1)C(=O)N[C@@H](C)C(=O)N[C@@H](CC(=O)O)C(=O)COC(=O)c1c(C)cccc1C | THP-1 cells, LPS-primed | pyroptosis, LDH release | – | 25 µM, LPS 1 µg/mL, 4 h, with: nigericin 5 µM, 2 h | – | cell lysis | 88.5% |

| Structure (SMILES) | target or system | assay | system | setting | scale | measurement | result |
| --- | --- | --- | --- | --- | --- | --- | --- |
| CN(C)CCN1CCN(c2ccc3nc(-c4ccc5nc(-c6ccc(C(F)(F)F)cc6)[nH]c5c4)[nH]c3c2)CC1 | SK-MEL-2 | SRB | – | 10 µM, 48 h | – | growth percent | 52% |
| O=C(NCCO)c1ccc(C2CCCCC2)cc1 | – | liver microsome stability | dog liver microsomes | 1 µM | – | hepatic clearance | 28 mL/min/kg |
| COc1cc(N2CCN(C(=O)CN)CC2)ccc1Nc1ncc(Cl)c(Nc2ccccc2P(C)(C)=O)n1 | NCI-H3122 | CCK-8 | – | 25 nM, 48 h | – | viability | 76% |
| CC12CCCC(n3cc(CN4CCS(=O)(=O)CC4)nn3)(C1)C1CC(C)(C)C1CC2 (centres unmarked) | HT-29 | cell growth or viability, CCK-8 | – | 10 µM | – | inhibition | < 50% |
| C=CC(=O)N1CCCC(n2c(=O)c3ncccc3n(Cc3ccc(Oc4ccccc4)cc3)c2=O)C1 (centres unmarked) | OCI-LY19 | annexin V/PI flow cytometry | – | 500 nM, 72 h, Q1 quadrant | – | annexin V/PI cells | 1.62% |
| CC12CCCC(NC(=O)c3ccc([N+](=O)[O-])cc3)(C1)C1CC(C)(C)C1CC2 (centres unmarked) | HT-29 | cell growth or viability, CCK-8 | – | 10 µM | – | inhibition | < 50% |
| CC(=O)N[C@@H](Cc1ccc(I)cc1)C(=O)N[C@@H](CCC(=O)O)C(=O)N[C@H](C(=O)N[C@@H](CC(=O)O)C(=O)COC(=O)c1c(C)cccc1C)[C@@H](C)O | THP-1 cells, LPS-primed | pyroptosis, LDH release | – | 25 µM, LPS 1 µg/mL, 4 h, with: nigericin 5 µM, 2 h | – | cell lysis | 33.8% and 73.6% |
| O=C(NCCOc1ccc(F)cc1)c1ccc([C@H]2[C@@H](F)[C@@H](F)C[C@@H](F)[C@H]2F)cc1 | – | liver microsome stability | cynomolgus liver microsomes | 1 µM | – | hepatic clearance | 12 mL/min/kg |
| CCC(=CCc1c(O)cc2c(c1O)C(=O)CC(c1ccc(O)cc1OC)O2)CC (centres unmarked) | HeLa | cell growth or viability, MTT | – | 12.5 µM, 48 h | – | inhibition | 21.8% |
| CN1CCCNC(=O)c2cccc(c2)C(=O)NCCCN(C)CCCNc2cccc3c2C(=O)c2cccc(c2C3=O)NCCC1 | SAS | RNA-Seq, item: CETN3 mRNA | – | 1 µM, 6 h | reference: untreated cells | log2 fold change | 1.17 |
| CC(=O)N[C@@H](CC(=O)O)C(=O)N[C@@H](CO)C(=O)N[C@@H](C)C(=O)N[C@@H](CC(=O)O)C(=O)COC(=O)c1c(C)cccc1C | THP-1 cells, LPS-primed | pyroptosis, LDH release | – | 25 µM, LPS 1 µg/mL, 4 h, with: nigericin 5 µM, 2 h | – | cell lysis | 92.3% and 84.7% |
| CC(C)c1ccc(N(C)c2ccc3c(c2)OCC[C@H]3CNc2cnccc2C(=O)O)cc1 | NCI-H1437 | cell growth or viability, ATP luminescence | – | 7 days | – | IC50 | 0.0131 µM |
| COC1CCN(C(=O)/C=C/c2nn(Cc3cccc(C(F)(F)F)c3)c3nc(NC(C)(C)C)ncc23)CC1 | OE33 | cell growth or viability, resazurin | – | 5 days | – | EC50 | > 30 µM |
| COc1ccc(CNC[C@@](O)(COCc2ccccc2)[C@@H]2CC[C@@H](C)C[C@H]2OCc2ccccc2)cc1 | A2780 | cell growth or viability, MTT | – | 10 µM, 72 h | – | inhibition | 99% |
| COC1=C2CC(C)CC(OC)C(O)C(C)C=C(C)C(OC(N)=O)C(OC)C=CC=C(C)C(=O)NC(=CC1=O)C2=O (centres unmarked) | Rh30 | ChIP-seq, item: H3K36me3 peak | – | concentration not given, PRPS2 intron chrX:12808600-12844199 | reference: untreated control | log fold change | -0.5 |
| CCC(=CCc1c(O)cc2c(c1O)C(=O)CC(c1cccc(O)c1)O2)CC (centres unmarked) | HeLa | cell growth or viability, MTT | – | 6.25 µM, 48 h | – | inhibition | 16.3% |
| CCN(CC)CC(=O)Nc1cccc(-n2cc(-c3ccc4ccc(-c5cn(-c6cccc(NC(=O)CN(CC)CC)c6)nn5)cc4c3)nn2)c1 | RCC4 | PCR array, item: TGFA | – | 5 x IC50, 4 h, normoxia | reference: untreated | fold regulation | -1.21 fold |
| CC(=O)N1CCC[C@H]1C(=O)N[C@@H](CCC(N)=O)C(=O)N[C@@H](C)C(=O)N[C@@H](CC(=O)O)C(=O)COC(=O)c1c(C)cccc1C | THP-1 cells, LPS-primed | pyroptosis, LDH release | – | 25 µM, LPS 1 µg/mL, 4 h, with: nigericin 5 µM, 2 h | – | cell lysis | 55.8% and 63.8% |
| O=S(=O)(N[C@H]1CCO[C@@H](C2c3ccc(F)cc3CCc3cc(F)ccc32)C1)c1ccc(OC(F)(F)F)cc1 | D341 | CellTiter | – | concentration not given, 72 h | – | cell proliferation | decreased |
| Cc1cc(Cl)cc(-c2ccnc3cc(CN4C(=O)C5C(C4=O)C5(C)C)sc23)c1C[C@@H]1CNCCO1 (some centres unmarked) | CHP-212 resistant cells (pooled) | PI flow cytometry | – | 0.3 µM, 24 h | – | cells in G2/M phase | 11.9% and 14.6% and 9.94% |
| CCC(=CCc1c(O)cc2c(c1O)C(=O)CC(c1cc(O)ccc1OC)O2)CC (centres unmarked) | HeLa | cell growth or viability, MTT | – | 0.781 µM, 48 h | – | inhibition | 0.252% |
| Cc1c(Cl)cccc1Nc1ccccc1C(=O)[Se]CC(=O)Nc1cccc(C(F)(F)F)c1 | NCI60 NSCLC subpanel mean | cell growth | – | – | – | TGI | 3.11 µM |
| C[C@@H]1CC[C@@H]([C@](O)(CNCc2cccc(F)c2)COCc2ccccc2)[C@H](OCc2ccccc2)C1 | HeLa | cell growth or viability, MTT | – | 30 µM, 72 h | – | inhibition | 96.6% |

For quick reference, copied from above:
| Structure (SMILES) | target or system | assay | system | setting | scale | measurement | result |
| --- | --- | --- | --- | --- | --- | --- | --- |
| CCC(=CCc1c(O)cc2c(c1O)C(=O)CC(c1cccc(O)c1)O2)CC (centres unmarked) | HeLa | cell growth or viability, MTT | – | 6.25 µM, 48 h | – | inhibition | 16.3% |
| O=S(=O)(N[C@H]1CCO[C@@H](C2c3ccc(F)cc3CCc3cc(F)ccc32)C1)c1ccc(OC(F)(F)F)cc1 | D341 | CellTiter | – | concentration not given, 72 h | – | cell proliferation | decreased |
| COc1cc(N2CCN(C(=O)CN)CC2)ccc1Nc1ncc(Cl)c(Nc2ccccc2P(C)(C)=O)n1 | NCI-H3122 | CCK-8 | – | 25 nM, 48 h | – | viability | 76% |
| CCC(=CCc1c(O)cc2c(c1O)C(=O)CC(c1ccccc1O)O2)CC (centres unmarked) | MCF7 | cytotoxicity, MTT | – | 1.696 µM, 48 h | – | growth inhibition | -6.2% |
| CC12CCCC(n3cc(CN4CCS(=O)(=O)CC4)nn3)(C1)C1CC(C)(C)C1CC2 (centres unmarked) | HT-29 | cell growth or viability, CCK-8 | – | 10 µM | – | inhibition | < 50% |
